Assay results collected from several papers.
± gives the spread as reported. Converted amounts (≈) assume the structure as drawn.
Organism: Pseudomonas aeruginosa

Compound = CCCCCCCCCCCCCCCC(=O)N[C@@H](CCCCN)C(=O)N[C@@H](CCCCN)C(=O)N[C@@H](CCCCN)C(=O)N[C@@H](CCCCN)C(=O)N[C@@H](Cc1c[nH]cn1)C(N)=O; test system = ATCC 27853; measurement = MBC; result = 128 µg/mL (≈ 141 µM)
Compound = Oc1ccc(C(F)(F)F)cc1-c1nc2c(Cl)cc(Cl)cc2[nH]1; assay = colistin potentiator; test system = TRPA 161, colistin-resistant; conditions = 5 µM; measurement = MIC of colistin; result = 2 µg/mL
Compound = Cc1cccc2c3c(ccc12)C(=O)C1=C(OC[C@H]1C)C3=O; assay = LDH release; test system = J774.A1, PAO1; how to read = reference: mock-treated infected cells; measurement = EC50; result = 12.5 µM
Compound = Cc1cc(O)c2c(c1)C(=O)c1cc3oc(=O)cc(-c4ccc(O)cc4)c3c(O)c1C2=O; test system = MTCC 2453; conditions = 100 µg/disc; measurement = zone of inhibition; result = < 8 mm
Compound = CC[C@H](C)[C@@H]1NC(=O)[C@@H]2CSSC[C@@H]3NC(=O)[C@H](C(C)C)NC(=O)CNC(=O)CNC(=O)[C@H](CCCNC(=N)N)NC(=O)[C@H](CCCNC(=N)N)NC(=O)CNC(=O)[C@H](C(C)C)NC(=O)[C@@H]4CSSC[C@H](NC(=O)[C@H](CC(C)C)NC(=O)[C@H](CCCNC(=N)N)NC(=O)CNC(=O)CNC(=O)[C@H](CO)NC(=O)CNC(=O)[C@H](CO)NC(=O)CNC(=O)[C@@H]5CSSC[C@H](NC(=O)[C@H](CC(=O)O)NC(=O)[C@H](CO)NC(=O)[C@H](CC(=O)O)NC(=O)[C@H](CCCNC(=N)N)NC(=O)[C@H](CCCNC(=N)N)NC(=O)[C@H](CSSC[C@H](NC1=O)C(=O)N[C@@H](CCCNC(=N)N)C(=O)NCC(=O)N[C@@H](CC(N)=O)C(=O)NCC(=O)N[C@@H](Cc1ccc(O)cc1)C(=O)N5)NC(=O)[C@H](CCCNC(=N)N)NC(=O)[C@H](CCC(N)=O)NC(=O)[C@H](CC(C)C)NC(=O)[C@H]([C@@H](C)CC)NC(=O)[C@H](CCCCN)NC(=O)[C@@H]1CCCN1C3=O)C(=O)N1CCC[C@H]1C(=O)NCC(=O)N[C@@H](C)C(=O)N2)C(=O)N[C@@H](Cc1ccc(O)cc1)C(=O)N[C@H]1CSSC[C@H](NC(=O)[C@H](Cc2ccccc2)NC(=O)[C@H](CCCNC(=N)N)NC(=O)[C@H](CCCNC(=N)N)NC(=O)[C@H](CCCNC(=N)N)NC1=O)C(=O)N[C@@H](C(C)C)C(=O)N4; test system = clinical isolates 30% MDR, CAMHB; measurement = MIC50; result = 1.5 µM (≈ 8.26 µg/mL)
Compound = CC[C@@H](C)[C@@H](NC(=O)[C@@H](CCCNC(=N)N)NC(=O)[C@@H](CCCNC(=N)N)NC(=O)[C@@H](Cc1c[nH]c2ccccc12)NC(=O)[C@@H](CCC(N)=O)NC(=O)[C@H](N)C(C)C)C(=O)N[C@H](CCCNC(=N)N)C(=O)N[C@@H](C(=O)N[C@H](Cc1c[nH]c2ccccc12)C(=O)N[C@@H](C(=O)N[C@@H](C(=O)N[C@H](CCCNC(=N)N)C(N)=O)[C@H](C)CC)C(C)C)C(C)C; test system = PAO1, Galleria mellonella larvae; conditions = proleg injection, 20 µg per larva, 24 h post infection, 37 °C, dosed 1 h after infection; measurement = survival; result = 50 ± 8%
Compound = CCOC(=O)c1cnc(N/N=C/c2c(-c3ccc(F)cc3)nc3ncccn23)s1; assay = microbial growth, well diffusion; test system = ATCC27853; conditions = 100 µg/mL; measurement = inhibition zone; result = 12 mm
Compound = COc1ccc(-c2ccn(CC[C@](C)(C(=O)NO)S(C)(=O)=O)c(=O)c2)c(F)c1; test system = PA-1950, mice acute septicaemia model; conditions = subcutaneous; measurement = ED50; result = 7.4 mg/kg
Compound = S=c1n(CN2CCN(Cc3ccccc3)CC2)nc(C23CC4CC(CC(C4)C2)C3)n1-c1ccccc1; test system = IFO 3448; conditions = 200 µg/disc, 24 h, 37 °C; measurement = inhibition zone diameter; result = < 10 mm
Compound = c1ccc(-c2ccc(CNCCNCc3ccc(-c4ccccn4)cc3)cc2)nc1; test system = PA103, mouse pneumonia model; conditions = intraperitoneal, 100 µg, 18 h; measurement = lavage protein concentration; result = decreased
Compound = CC[C@@H](C)[C@@H](NC(=O)[C@@H](C)NC(=O)[C@@H](CCCCN)NC(=O)[C@@H](CC(C)C)NC(=O)[C@@H](CC(C)C)NC(=O)[C@H](NC(=O)[C@@H](CCCCN)NC(=O)[C@@H](CC(C)C)NC(=O)[C@@H](C)NC(=O)[C@@H](CCCCN)NC(=O)[C@@H](CCCCN)NC(=O)[C@@H](CCCCN)NC(=O)[C@@H](C)NC(=O)[C@@H](CCCCN)NC(=O)[C@@H](CO)NC(=O)[C@@H](Cc1ccccc1)NC(=O)[C@H](NC(=O)[C@@H](CCCCN)NC(=O)[C@@H](CC(C)C)NC(=O)[C@@H](Cc1ccccc1)NC(=O)[C@@H](CO)NC(=O)[C@@H](CCCCN)NC(=O)[C@@H](Cc1c[nH]c2ccccc12)NC(=O)[C@@H](CCCCN)NC(C)=O)[C@H](C)O)[C@H](C)O)C(=O)N[C@H](CO)C(=O)N[C@H](CCCCN)C(N)=O; test system = six isolates; measurement = MIC geometric mean; result = 2.3 µM (≈ 7.05 µg/mL)
Compound = COc1cc(OC)c2c(c1)C(=O)c1cc3oc(=O)cc(C)c3c(O)c1C2=O; test system = MTCC 2453; conditions = 100 µg/disc; measurement = zone of inhibition; result = < 8 mm
Compound = Cn1c(SCCN2CCCC2)nnc1C12CC3CC(CC(C3)C1)C2; test system = IFO 3448; conditions = 200 µg/disc, 24 h, 37 °C; measurement = inhibition zone diameter; result = < 10 mm
Compound = CC[C@H](C)[C@H](NC(=O)[C@H](Cc1c[nH]cn1)NC(=O)[C@H](CCCCNC(=O)[C@@H](NC(=O)[C@H](CCCCN)NC(=O)[C@H](CCCCNC(=O)[C@H](CC(C)C)NC(=O)[C@@H]1CCCN1C(=O)[C@H](CCCCN)NC(=O)CSCCCCCCO[C@H]1O[C@@H](C)[C@@H](O)[C@@H](O)[C@@H]1O)NC(=O)[C@H](CC(C)C)NC(=O)[C@@H]1CCCN1C(=O)[C@H](CCCCN)NC(=O)CSCCCCCCO[C@H]1O[C@@H](C)[C@@H](O)[C@@H](O)[C@@H]1O)[C@@H](C)CC)NC(=O)[C@@H](NC(=O)[C@H](CCCCN)NC(=O)[C@H](CCCCNC(=O)[C@H](CC(C)C)NC(=O)[C@@H]1CCCN1C(=O)[C@H](CCCCN)NC(=O)CSCCCCCCO[C@H]1O[C@@H](C)[C@@H](O)[C@@H](O)[C@@H]1O)NC(=O)[C@H](CC(C)C)NC(=O)[C@@H]1CCCN1C(=O)[C@H](CCCCN)NC(=O)CSCCCCCCO[C@H]1O[C@@H](C)[C@@H](O)[C@@H](O)[C@@H]1O)[C@@H](C)CC)C(N)=O; test system = PAO1; conditions = together with: tobramycin 0.1 µM; measurement = concentration for 100% biofilm dispersal; result = 20 µM
Compound = CCCCCC1CC2CCCC3CC(C)N=C(N1)N32 (stereo not shown); assay = bacterial growth; test system = ATCC 27853; measurement = IC50; result = 48.2 µM
Compound = CCOc1ccc(NC(=O)CSc2nc3ccccc3c(=O)n2-c2ccc(S(N)(=O)=O)cc2)cc1; assay = microbial growth, well diffusion; test system = ATCC27853; conditions = 500 µg/mL, 24 h; measurement = inhibition zone; result = 14 mm
Compound = O=c1cc(-c2ccc(O)cc2)oc2cc(O)cc([O][Ga+][O]c3cc(O)cc4oc(-c5ccc(O)cc5)cc(=O)c34)c12; assay = pyocyanin secretion; conditions = 0.08 µM, 20 h; measurement = inhibition; result = 50%
Compound = CCCCCCCCCC(=O)NCCCC[C@@H](NC(=O)[C@@H](CC(C)C)NC(=O)[C@@H](CCCCN)NC(=O)[C@@H](CCCCNC(=O)[C@@H](CC(C)C)NC(=O)[C@@H](CCN)NC(=O)[C@@H](CCCCNC(=O)[C@@H](Cc1ccccc1)NC(=O)[C@H](N)CCCN)NC(=O)[C@@H](Cc1ccccc1)NC(=O)[C@H](N)CCCN)NC(=O)[C@@H](CC(C)C)NC(=O)[C@@H](CCN)NC(=O)[C@@H](CCCCNC(=O)[C@@H](Cc1ccccc1)NC(=O)[C@H](N)CCCN)NC(=O)[C@@H](Cc1ccccc1)NC(=O)[C@H](N)CCCN)C(N)=O; assay = biofilm formation; test system = PAO1; conditions = 24 h, 37 °C; measurement = MBIC; result = 8 µg/mL
Compound = CC[C@@H](C)[C@@H](NC(=O)[C@@H](C)NC(=O)[C@@H](CCCCN)NC(=O)[C@@H](CC(C)C)NC(=O)[C@@H](CC(C)C)NC(=O)[C@H](NC(=O)[C@@H](CCCCN)NC(=O)[C@@H](CC(C)C)NC(=O)[C@@H](CCCCN)NC(=O)[C@@H](CCCCN)NC(=O)[C@@H](CCCCN)NC(=O)[C@@H](CCCCN)NC(=O)[C@@H](C)NC(=O)[C@@H](CCCCN)NC(=O)[C@@H](CO)NC(=O)[C@@H](Cc1ccccc1)NC(=O)[C@H](NC(=O)[C@@H](CCCCN)NC(=O)[C@@H](CC(C)C)NC(=O)[C@@H](Cc1ccccc1)NC(=O)[C@@H](CO)NC(=O)[C@@H](CCCCN)NC(=O)[C@@H](Cc1c[nH]c2ccccc12)NC(=O)[C@@H](CCCCN)NC(C)=O)[C@H](C)O)[C@H](C)O)C(=O)N[C@H](CO)C(=O)N[C@H](CCCCN)C(N)=O; test system = six isolates; conditions = 24 h, 37 °C; measurement = MIC geometric mean; result = 2.5 µM (≈ 7.8 µg/mL)
Compound = CCCCCCCCCC(=O)CC(=O)Nc1cccc(OC)c1; assay = elastin-Congo red; test system = PAO1 wild type; conditions = 100 µM; measurement = elastase inhibition; result = ≥ 50%
Compound = Cc1cccc([N+](=O)[O-])c1NC(=O)CSc1nc2ccccc2c(=O)n1-c1ccc(S(N)(=O)=O)cc1; assay = microbial growth, well diffusion; test system = ATCC27853; conditions = 500 µg/mL, 24 h; measurement = inhibition zone; result = 11 mm
Compound = COc1ccc2c(c1)C=[N+]1C3CCCCC3[N+]3=Cc4c(ccc5ccc(OC)cc45)[O][Au-]13[O]2.F[P-](F)(F)(F)(F)F (stereo not shown); assay = bacterial growth, broth microdilution; test system = carbapenem-resistant; conditions = 24 h; measurement = MIC; result = > 20 µM
Compound = O=c1cc(-c2ccccc2)oc2cc(O)cc([O][Ga+][O]c3cc(O)cc4oc(-c5ccccc5)cc(=O)c34)c12; assay = pyocyanin secretion; conditions = 0.08 µM, 20 h; measurement = inhibition; result = 67%
Compound = CNC1=C([N+](=O)[O-])C2(C(=O)Nc3ccccc32)C2=C(CCCC2=O)O1 (stereo not shown); assay = growth; test system = MTCC 2453; conditions = 250 µg/mL, 24 h; measurement = inhibition; result = 67.3%
Compound = CC[C@@H](C)[C@@H](NC(=O)[C@@H](C)NC(=O)[C@@H](CCCCN)NC(=O)[C@@H](CC(C)C)NC(=O)[C@@H](C)NC(=O)[C@H](NC(=O)[C@@H](Cc1c[nH]cn1)NC(=O)[C@@H](CC(C)C)NC(=O)[C@H](NC(=O)[C@H](NC(=O)[C@@H](CCCCN)NC(=O)[C@H](NC(=O)[C@@H](C)NC(=O)[C@@H](CO)NC(=O)[C@@H](CCCCN)NC(=O)[C@@H](Cc1ccccc1)NC(=O)[C@H](NC(=O)[C@@H](CCCCN)NC(=O)[C@@H](CC(C)C)NC(=O)[C@@H](Cc1ccccc1)NC(=O)[C@@H](CO)NC(=O)[C@@H](CCCCN)NC(=O)[C@@H](Cc1c[nH]c2ccccc12)NC(=O)[C@@H](CCCCN)NC(C)=O)[C@H](C)O)C(C)C)[C@H](C)O)C(C)C)[C@H](C)O)C(=O)N[C@H](CO)C(=O)N[C@H](CO)C(N)=O; test system = six isolates; how to read = reference: HC50 over geometric mean MIC; measurement = therapeutic index; result = 1

Excerpt of the above:
Compound = Cc1cc(O)c2c(c1)C(=O)c1cc3oc(=O)cc(-c4ccc(O)cc4)c3c(O)c1C2=O; test system = MTCC 2453; conditions = 100 µg/disc; measurement = zone of inhibition; result = < 8 mm
Compound = O=c1cc(-c2ccccc2)oc2cc(O)cc([O][Ga+][O]c3cc(O)cc4oc(-c5ccccc5)cc(=O)c34)c12; assay = pyocyanin secretion; conditions = 0.08 µM, 20 h; measurement = inhibition; result = 67%
Compound = CCCCCC1CC2CCCC3CC(C)N=C(N1)N32 (stereo not shown); assay = bacterial growth; test system = ATCC 27853; measurement = IC50; result = 48.2 µM
